Published values from different studies.
Compare with care: the assays were run in different laboratories. Values joined by “and” are separate records of one study, mostly repeats; a detail may differ.

SMILES | cell line | assay | setting | scale | endpoint | result
COc1ccc(NC(=O)c2c(Nc3ccccc3)sc(C(=O)N/N=C/c3ccc(OC)c(OC)c3)c2NC(C)=O)cc1 | HCT-116 | cell growth or viability, SRB | 100 µM, 48 h |  | viability | 32.4%
CC1(C)CC[C@@]2(CO)C(=C3C=C[C@@H]4[C@@]5(C)CC[C@H](O)[C@@](C)(CO)[C@@H]5CC[C@@]4(C)[C@]3(C)C[C@@H]2O)C1 | HepG2, SIRT1 siRNA | flow cytometry | concentration not given, high dose, together with: ethanol | relative to: control cells | relative ROS fluorescence | 1.89 and 2.16 and 1.54
CC(C)Cc1ccc(C(C)C(=O)[Se]CC(=O)Nc2cccc(C(F)(F)F)c2)cc1 (stereo not shown) | NCI60 breast subpanel | NCI60 five-dose screen |  |  | GI50 | 1880 nM
O=CCNCCOn1c(=O)n(OCCNCCO)c(=O)n(OCCNCCOn2c(=O)n(OCCNCCO)c(=O)n(OCCNCCO)c2=O)c1=O | A549 | cell growth or viability, MTT | 25 µg/mL, 72 h |  | viability | 47.2%
O=C(C[Se]C(=O)c1cc2ccccc2[nH]1)Nc1cccc(C(F)(F)F)c1 | NCI60 breast subpanel | NCI60 five-dose screen |  |  | GI50 | 1720 nM
CCOc1cncc(-c2ccc(NC(=O)C3(c4ccnc(NS(=O)(=O)C5CC5)n4)CCOCC3)nc2)n1 | human Endometrial cancer | cell proliferation, inhibitor, CellTiter-Glo viability | 72 h, 0.1% DMSO |  | IC50 | 10000 nM
O=C(CCCCCOc1ccc2ccccc2c1)N[C@@H](CO)C[C@@H](O)c1ccc(-c2ccccc2)cc1 | HeLa | CERT activity, HPLC-MS/MS lipidomics, measured: ceramide 22 | 1 µM, 24 h, not cell-number normalised |  | ceramide level | 2040 pmol/sample and 2240 pmol/sample
CCC1NC2CC3(C(=O)N(OC)c4cc(OC)ccc43)C3OCC2C1C3O (stereo not shown) | HT-22 | CCK-8 | up to 100 µM, 24 h |  | viability | no effect
CSC(=NN=C(C)c1ccc(S(=O)(=O)N2CCC(C)CC2)cc1)N(C)C | HCT-116 | flow cytometry | 3.66 µM (IC50), 72 h |  | cells in G0/G1 phase | 46.3%
Nc1ccc[n+]([Pt-2]([Cl])([Cl])[n+]2cccc(N)c2Cl)c1Cl | BEAS-2B | cell viability, MTT | 24 h |  | IC25 | 18500 nM
COc1cc(N2CCN(C(=O)CCOCCNC(=O)[C@@H]3CCCN3)CC2)ccc1Nc1ncc(Cl)c(Nc2ccccc2P(C)(C)=O)n1 | NCI-H3122 | flow cytometry | 500 nM, 24 h, mean of replicates |  | G2 phase cells | 10%
Cc1ncsc1-c1ccc(C(C)NC(=O)C2CC(O)CN2C(=O)C(NC(=O)CCCCCCCCCCN2CCCC(Nc3ncc(Cl)c(Nc4ccccc4S(=O)(=O)C(C)C)n3)C2)C(C)(C)C)cc1 (stereo not shown) | 22Rv1 | RNA-seq, measured: RPAP2 mRNA | concentration not given | relative to: DMSO | log2 fold change | -1.23
CCN(C(=O)c1cc(F)ccc1Oc1nncnc1N1CCC2(C1)CN([C@H](CCCN(C)CCOC)C(C)C)C2)C(C)C | OVCAR-4 | cell growth or viability | 72 h |  | GI50 | > 10000 nM
Cc1ccncc1.[Cl-].[Cl-].[Ru+2].c1cc(-c2ccc3cccnc3n2)nc(-c2ccc3cccnc3n2)c1.c1ccc2cc3nc4c5cccnc5c5ncccc5c4nc3cc2c1 | B16-F10 | resazurin | together with: light 733 nm, 100 J/cm2 | relative to: dark EC50 over light EC50 | phototoxicity index | 36
CO[C@@H]1[C@@H](OC(N)=O)[C@@H](O)[C@H](Oc2ccc3c(O)c(NC(=O)c4ccc(O)c(CC=C(C)C)c4)c(=O)oc3c2C)OC1(C)C | DLD-1 BRCA2-/- |  | 300 µM, replicate A | relative to: untreated | colony survival | 0.339%
Cn1ncc2cc(-c3cncc(Cl)c3N3CCC4(CCNC4=O)CC3)ccc21 | LS174T | gene expression, microarray, measured: PLAC8 mRNA | concentration not given, 4 h | relative to: untreated cells | log2 fold change | 2.17

SMILES | cell line | assay | setting | scale | endpoint | result
C=CC(=O)N1[C@@H](c2ccc3c(c2)OCO3)c2[nH]c3ccccc3c2C[C@H]1C(=O)NC1CC1 | rat DRG neurons |  | 10 µM, 48 h, together with: vincristine 40 nM |  | neuron degeneration | 16.7% and 17.5%
CC(C)(C)c1cc(-c2ccc3cccnc3n2)nc(-c2ccc3cccnc3n2)c1.[Cl-].[Cl-].[Ru+2].c1ccc2cc3nc4c5cccnc5c5ncccc5c4nc3cc2c1 | B16-F10 | resazurin | together with: light 633 nm, 100 J/cm2 | relative to: dark EC50 over light EC50 | phototoxicity index | 4
CCN(CC)CC(=O)Nc1cccc(-n2cc(-c3ccc4ccc(-c5cn(-c6cccc(NC(=O)CN(CC)CC)c6)nn5)cc4c3)nn2)c1 | RCC4 | PCR angiogenesis array, measured: IGF1 | 5 x IC50, 4 h, normoxia | relative to: untreated | fold regulation | -1.39
CN1CCCNC(=O)c2cccc(c2)C(=O)NCCCN(C)CCCNc2cccc3c2C(=O)c2cccc(c2C3=O)NCCC1 | SAS | annexin V/PI staining | 5 µM, 24 h, mean |  | PI-positive cells | 10.9%
CSC(=S)N/N=C(\C)c1ccc(Nc2nnc(-c3ccc(Cl)cc3)c3ccccc23)cc1 | MCF7 | cell growth or viability, MTT | 5 µM |  | cell death | 94.2%
Cc1ccc(-n2cc(CSc3nc4ccccc4n3Cc3cn(-c4ccc(C)cc4)nn3)nn2)cc1 | Caco-2 | MTT | 62.5 ppm |  | viability | 16.1%
Cc1nc(Nc2ncc(C(=O)Nc3c(C)cccc3Cl)s2)cc(N2CCN(C(=O)CN)CC2)n1 | KU812 | flow cytometry | concentration not given, 3 h |  | late apoptotic cells | 5.94% and 5.41% and 6.29%
CNS(=O)(=O)Nc1nccc(Cc2c(C)c3ccc(Oc4ncccc4F)cc3oc2=O)c1F | SUP-T1 | cell viability | 7 days |  | IC50 | > 1000 nM
CN1CCC(N[C@@H]2CCc3[nH]c4c(C(N)=O)ccc(-c5ccccc5Cl)c4c3C2)CC1 | SU-DHL-4 | cell growth or viability |  |  | IC50 | 6.34 nM
O=C(N1CCCC1)n1cc(-c2ccc(-c3ccccc3)cc2)nn1 | mouse T cells | N-terminal labelling proteomics, measured: Arhgef2 N-terminal peptide | 0.001 µM, 6 h | relative to: DMSO | SILAC ratio per peptide | 1.26 and 1.18 and 1.01
CC1(C)C[C@@H](Nc2cccc(-c3sc(C(=O)O)c(OCC(=O)O)c3Cl)c2)CCN1S(=O)(=O)Cc1cccc(NC(=O)CN2CCC(c3ccc4c(c3)oc(=O)n4C3CCC(=O)NC3=O)CC2)c1 (stereo partly shown) | B16-F10 | HTRF, measured: phospho-STAT1 Tyr701 | 3.3 µM, together with: IFN-γ | relative to: DMSO | fold change | 5.08 and 5.53 and 5.42 and 5.25 and 5.51 and 5.36
CC(C)(C)c1cc(-c2ccc3cc4ccccc4nc3n2)nc(-c2ccc3cc4ccccc4nc3n2)c1.Cc1ccncc1.[Cl-].[Cl-].[Ru+2].c1ccc2cc3nc4c5cccnc5c5ncccc5c4nc3cc2c1 | B16-F10 | resazurin | together with: light 523 nm, 20 mW, 100 J/cm2 |  | EC50 | 13700 nM
[BH3-][P+]1(c2ccccc2)CCCCC1 | SW-620 | trypan blue | IC50, 72 h | relative to: untreated | reduction of cell number | 56 to 60%
COC1=C2CC(C)CC(OC)C(O)C(C)C=C(C)C(OC(N)=O)C(OC)C=CC=C(C)C(=O)NC(=CC1=O)C2=O (stereo not shown) | Rh30 | ChIP-seq, measured: H3K36me3 peak | concentration not given, SMPD4 intron chr2:130920200-130937399 | relative to: untreated control | log fold change | -0.502
CC(C)c1ccc(N(C)c2ccc3c(c2)OCC[C@H]3CNc2cnccc2C(=O)O)cc1 | OVISE | cell growth or viability, ATP luminescence | 7 days |  | IC50 | 24 nM
